Experimental data gathered from unrelated publications.
Every numbered part comes from another study and shows a few of its results, in no order.
UniProt P30411, sequence (whole entry, looked up): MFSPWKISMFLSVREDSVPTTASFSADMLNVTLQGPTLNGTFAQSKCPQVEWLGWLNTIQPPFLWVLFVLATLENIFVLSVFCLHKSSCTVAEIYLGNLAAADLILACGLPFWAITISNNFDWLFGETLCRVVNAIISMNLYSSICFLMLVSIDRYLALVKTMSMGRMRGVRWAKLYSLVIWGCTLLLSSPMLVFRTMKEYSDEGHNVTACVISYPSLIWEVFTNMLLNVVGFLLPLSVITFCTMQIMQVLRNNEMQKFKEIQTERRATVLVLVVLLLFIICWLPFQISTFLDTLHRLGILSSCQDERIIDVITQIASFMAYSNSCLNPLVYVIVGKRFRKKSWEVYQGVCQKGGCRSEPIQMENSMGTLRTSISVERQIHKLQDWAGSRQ
UniProt Q14680, sequence (whole entry, looked up): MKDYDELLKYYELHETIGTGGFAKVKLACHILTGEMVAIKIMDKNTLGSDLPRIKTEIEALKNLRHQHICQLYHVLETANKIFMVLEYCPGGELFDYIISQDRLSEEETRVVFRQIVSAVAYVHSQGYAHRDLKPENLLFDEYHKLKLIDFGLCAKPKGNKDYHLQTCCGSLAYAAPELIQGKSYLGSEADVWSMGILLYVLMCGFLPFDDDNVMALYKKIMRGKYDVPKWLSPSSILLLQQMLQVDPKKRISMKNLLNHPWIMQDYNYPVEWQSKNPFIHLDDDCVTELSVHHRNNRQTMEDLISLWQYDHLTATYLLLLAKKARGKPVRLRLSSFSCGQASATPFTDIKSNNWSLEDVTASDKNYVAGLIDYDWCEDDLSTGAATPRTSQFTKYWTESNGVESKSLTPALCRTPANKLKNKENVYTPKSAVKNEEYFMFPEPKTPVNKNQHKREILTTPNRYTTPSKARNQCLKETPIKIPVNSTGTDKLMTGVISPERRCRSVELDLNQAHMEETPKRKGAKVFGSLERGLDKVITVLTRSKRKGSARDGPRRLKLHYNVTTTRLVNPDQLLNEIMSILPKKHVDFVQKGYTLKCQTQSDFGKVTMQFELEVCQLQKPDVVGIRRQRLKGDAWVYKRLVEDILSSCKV
UniProt Q05513, sequence (whole entry, looked up): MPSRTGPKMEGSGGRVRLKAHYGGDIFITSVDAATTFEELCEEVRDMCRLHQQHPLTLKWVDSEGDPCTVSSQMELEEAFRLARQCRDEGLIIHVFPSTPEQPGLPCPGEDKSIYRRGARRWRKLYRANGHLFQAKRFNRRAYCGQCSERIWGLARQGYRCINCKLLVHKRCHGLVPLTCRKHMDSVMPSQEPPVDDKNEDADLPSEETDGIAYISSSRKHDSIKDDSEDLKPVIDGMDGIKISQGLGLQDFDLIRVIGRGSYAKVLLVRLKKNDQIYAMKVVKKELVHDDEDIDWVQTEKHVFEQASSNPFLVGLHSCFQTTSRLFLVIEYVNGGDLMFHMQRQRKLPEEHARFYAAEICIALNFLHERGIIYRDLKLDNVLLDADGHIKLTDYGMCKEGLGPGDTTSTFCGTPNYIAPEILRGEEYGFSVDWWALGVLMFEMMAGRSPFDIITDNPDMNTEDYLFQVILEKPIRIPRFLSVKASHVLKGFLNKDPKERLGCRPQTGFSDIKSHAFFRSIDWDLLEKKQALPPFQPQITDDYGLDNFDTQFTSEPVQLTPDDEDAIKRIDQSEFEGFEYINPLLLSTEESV
UniProt Q00535, sequence (whole entry, looked up): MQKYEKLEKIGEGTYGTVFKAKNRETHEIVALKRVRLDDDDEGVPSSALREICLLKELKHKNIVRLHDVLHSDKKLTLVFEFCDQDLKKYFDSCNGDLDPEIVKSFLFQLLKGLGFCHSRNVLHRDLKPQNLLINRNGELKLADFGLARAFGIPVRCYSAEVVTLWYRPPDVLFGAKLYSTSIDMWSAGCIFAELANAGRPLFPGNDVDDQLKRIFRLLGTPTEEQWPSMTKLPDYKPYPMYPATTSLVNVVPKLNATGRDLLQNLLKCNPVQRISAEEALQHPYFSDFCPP
UniProt P08908, sequence (whole entry, looked up): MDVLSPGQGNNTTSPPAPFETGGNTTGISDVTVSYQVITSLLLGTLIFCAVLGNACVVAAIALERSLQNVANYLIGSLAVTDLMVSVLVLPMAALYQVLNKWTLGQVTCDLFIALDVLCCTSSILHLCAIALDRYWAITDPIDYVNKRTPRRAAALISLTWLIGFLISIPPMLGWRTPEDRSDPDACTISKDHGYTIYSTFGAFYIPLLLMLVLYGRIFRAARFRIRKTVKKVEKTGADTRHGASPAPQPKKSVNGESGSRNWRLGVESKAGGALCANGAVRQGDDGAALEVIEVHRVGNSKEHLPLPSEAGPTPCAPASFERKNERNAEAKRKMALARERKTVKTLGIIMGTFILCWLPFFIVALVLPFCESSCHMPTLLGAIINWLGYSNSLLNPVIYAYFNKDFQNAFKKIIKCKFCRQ
UniProt Q14012, sequence (whole entry, looked up): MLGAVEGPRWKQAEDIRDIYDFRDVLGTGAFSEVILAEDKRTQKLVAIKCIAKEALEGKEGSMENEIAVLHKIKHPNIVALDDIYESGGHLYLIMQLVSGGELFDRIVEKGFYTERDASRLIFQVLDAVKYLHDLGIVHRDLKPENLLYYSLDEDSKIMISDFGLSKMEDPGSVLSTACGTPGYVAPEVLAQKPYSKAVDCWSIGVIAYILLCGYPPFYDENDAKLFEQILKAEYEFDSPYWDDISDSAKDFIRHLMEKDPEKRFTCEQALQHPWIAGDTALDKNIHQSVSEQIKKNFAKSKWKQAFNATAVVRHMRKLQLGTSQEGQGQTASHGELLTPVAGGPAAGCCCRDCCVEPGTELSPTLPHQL
UniProt P29317, sequence (whole entry, looked up): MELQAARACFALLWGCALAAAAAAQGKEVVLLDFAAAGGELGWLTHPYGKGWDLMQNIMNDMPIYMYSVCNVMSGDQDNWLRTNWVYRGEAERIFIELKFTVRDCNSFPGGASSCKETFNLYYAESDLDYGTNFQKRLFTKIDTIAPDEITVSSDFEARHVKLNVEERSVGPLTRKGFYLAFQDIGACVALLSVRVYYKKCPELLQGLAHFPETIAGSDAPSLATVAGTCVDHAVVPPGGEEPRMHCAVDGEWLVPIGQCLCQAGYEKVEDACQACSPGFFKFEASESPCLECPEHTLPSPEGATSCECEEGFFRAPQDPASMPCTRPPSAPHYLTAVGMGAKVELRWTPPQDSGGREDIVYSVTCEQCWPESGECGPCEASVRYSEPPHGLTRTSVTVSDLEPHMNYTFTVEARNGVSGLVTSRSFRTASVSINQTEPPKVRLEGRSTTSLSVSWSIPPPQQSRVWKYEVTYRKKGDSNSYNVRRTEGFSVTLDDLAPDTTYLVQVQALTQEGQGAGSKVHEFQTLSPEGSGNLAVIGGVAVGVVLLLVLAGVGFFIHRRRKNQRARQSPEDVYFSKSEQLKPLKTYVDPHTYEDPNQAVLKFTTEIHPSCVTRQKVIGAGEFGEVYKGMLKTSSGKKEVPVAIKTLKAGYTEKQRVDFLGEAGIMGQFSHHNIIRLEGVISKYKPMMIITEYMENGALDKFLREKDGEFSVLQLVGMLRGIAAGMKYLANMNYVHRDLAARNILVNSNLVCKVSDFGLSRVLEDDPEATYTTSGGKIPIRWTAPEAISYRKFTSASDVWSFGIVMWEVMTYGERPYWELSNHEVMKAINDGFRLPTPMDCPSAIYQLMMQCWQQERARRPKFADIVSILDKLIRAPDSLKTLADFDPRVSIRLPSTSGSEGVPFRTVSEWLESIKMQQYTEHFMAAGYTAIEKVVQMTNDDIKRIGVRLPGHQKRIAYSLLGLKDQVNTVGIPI

Set 1 — sample: hydrocarbon/water
The logD of CCC[C@@H]1NC(=O)[C@H](C)N(C)C(=O)[C@H](CC(C)C)NC(=O)Cn2cc(nn2)CN(C)C(=O)[C@H](CC(C)C)NC(=O)[C@H](C)N(C)C(=O)[C@H](CC)NC(=O)[C@H](CCC)N(C)C(=O)[C@H]2CCCN2C1=O is reported as -1.02.
With CCC[C@@H]1NC(=O)CN(CCC)C(=O)[C@H](CC(C)C)NC(=O)Cn2cc(nn2)CN(C)C(=O)[C@H](CC(C)C)NC(=O)[C@H](C)N(C)C(=O)[C@H](CC(C)C)NC(=O)[C@H](C)N(C)C(=O)[C@H]2CCCN2C1=O the logD was -0.638.
For CCC[C@H]1NC(=O)[C@H](CC(C)C)NC(=O)[C@H](Cc2ccc(O)cc2)NC(=O)[C@H]2CCCN2C(=O)[C@H](CC2CCCCC2)NC(=O)[C@H](CC2CCCCC2)NC1=O, the logD was 1.69.
The logD of CC[C@@H]1C(=O)N(C)[C@@H](CC(C)C)C(=O)N[C@@H](CC(C)C)C(=O)N2CCC[C@@H]2C(=O)N(C)[C@@H](Cc2ccc(O)cc2)C(=O)N[C@@H](CC(C)C)C(=O)N1C is reported as 1.46.
For CCN1CC(=O)N[C@@H](CC(C)C)C(=O)N2CCC[C@@H]2C(=O)N(C)[C@@H](CC(C)C)C(=O)N[C@@H](C)C(=O)N(CC2CCOCC2)CC(=O)N[C@@H](Cc2ccccc2)C(=O)N2CCC[C@@H]2C(=O)N(C)[C@@H](CC(C)C)C(=O)N[C@@H](C)C1=O, the logD was 1.25.
CCOC(=O)[C@@H]1CSCC(=O)N[C@H](CC)C(=O)N(C)[C@@H](C)C(=O)N[C@H](CC(C)C)C(=O)N2CCC[C@@H]2C(=O)N(CC(C)C)CC(=O)N[C@H](CC(C)C)C(=O)N(C)[C@@H](C)C(=O)N[C@@H](CC(C)C)C(=O)N1C gave a logD of 1.65.
With CC[C@@H]1C(=O)N(C)[C@@H](C)C(=O)N[C@@H](CC(C)C)C(=O)N2CCC[C@@H]2C(=O)N(C)[C@@H](C)C(=O)N[C@@H](CC(C)C)C(=O)N1C the logD was -0.291.
With CCOC(=O)[C@@H]1CSCC(=O)N[C@H](CC)C(=O)N(CC(C)C)CC(=O)N[C@H](CC(C)C)C(=O)N(C)[C@H](C)C(=O)N(C)[C@@H](C)C(=O)N[C@H](CC(C)C)C(=O)N(C)[C@H](C)C(=O)N[C@@H](CC(C)C)C(=O)N1C the logD was 1.45.
With CC(C)C[C@@H]1NC(=O)CN(CCCOC(C)C)C(=O)[C@H](C)NC(=O)[C@H](CC(C)C)N(C)C(=O)[C@H]2CCCN2C(=O)[C@H](C)NC(=O)CN(CC2CCOCC2)C(=O)[C@H](C)NC(=O)[C@H](CC(C)C)N(C)C(=O)[C@H]2CCCN2C1=O the logD was 0.353.

Set 2 — observed: enzyme activity; mode: inhibitor; concentration: 0.5 µM; baseline: control
SMILES: CS(=O)(=O)CCNCc1ccc(-c2ccc3ncnc(Nc4ccc(OCc5cccc(F)c5)c(Cl)c4)c3c2)o1
It gave 79.7% for remaining activity (Protein kinase C zeta type (PRKCZ, Homo sapiens, UniProt Q05513)).
It gave 106% for remaining activity (Serine/threonine-protein kinase BRSK2 (BRSK2, Homo sapiens, UniProt Q8IWQ3)).
Tyrosine-protein kinase Fes/Fps (FES, Homo sapiens, UniProt P07332) — remaining activity: 104%.
It gave 102% for remaining activity (Calcium/calmodulin-dependent protein kinase type 1 (CAMK1, Homo sapiens, UniProt Q14012)).
For Ephrin type-A receptor 2 (EPHA2, Homo sapiens, UniProt P29317): remaining activity read 99%.
It gave 100% for remaining activity (Ribosomal protein S6 kinase beta-2 (RPS6KB2, Homo sapiens, UniProt Q9UBS0)).
The remaining activity was 103% (Cyclin-dependent kinase 5, with p35 (CDK5, Homo sapiens, UniProt Q00535)).
The remaining activity was 100% (SRSF protein kinase 1 (SRPK1, Homo sapiens, UniProt Q96SB4)).
Serine/threonine-protein kinase PAK 6 (PAK6, Homo sapiens, UniProt Q9NQU5) — remaining activity: 106%.
The remaining activity was 9.57% (Receptor tyrosine-protein kinase erbB-2 (ERBB2, Homo sapiens, UniProt P04626)).
Maternal embryonic leucine zipper kinase (MELK, Homo sapiens, UniProt Q14680) — remaining activity: 88.5%.
It gave 107% for remaining activity (Dual specificity protein kinase CLK1 (CLK1, Homo sapiens, UniProt P49759)).
It gave 105% for remaining activity (Activin receptor type-1-like (ACVRL1, Homo sapiens, UniProt P37023)).
The remaining activity was 96.7% (Mitogen-activated protein kinase kinase kinase 20 (MAP3K20, Homo sapiens, UniProt Q9NYL2)).
It gave 99% for remaining activity (Serine/threonine-protein kinase pim-1 (PIM1, Homo sapiens, UniProt P11309)).

Set 3 — mode: inhibitor; concentration: 10 µM; baseline: control
Target: Diamine acetyltransferase 1 (Homo sapiens, UniProt P21673)
Target sequence (P21673 1-171): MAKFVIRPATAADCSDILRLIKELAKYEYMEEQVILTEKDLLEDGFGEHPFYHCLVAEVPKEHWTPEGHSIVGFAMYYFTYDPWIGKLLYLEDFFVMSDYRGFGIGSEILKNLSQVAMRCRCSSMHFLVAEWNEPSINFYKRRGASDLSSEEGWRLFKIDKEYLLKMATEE
O=C(O[C@@H]1Cc2c(O)cc(O)cc2O[C@@H]1c1cc(O)c(O)c(O)c1)c1cc(O)c(O)c(O)c1 has a remaining activity of 82.2%.
For C/C(=C\CO)CCC[C@H](C)CCC[C@H](C)CCCC(C)C, the remaining activity was 98.5%.
With CC(C)=CCOc1c2ccoc2cc2oc(=O)ccc12 the remaining activity was 118%.
For O=C(OC[C@H]1O[C@@H](OC(=O)c2cc(O)c(O)c(OC(=O)c3cc(O)c(O)c(O)c3)c2)[C@H](OC(=O)c2cc(O)c(O)c(OC(=O)c3cc(O)c(O)c(O)c3)c2)[C@@H](OC(=O)c2cc(O)c(O)c(OC(=O)c3cc(O)c(O)c(O)c3)c2)[C@@H]1OC(=O)c1cc(O)c(O)c(OC(=O)c2cc(O)c(O)c(O)c2)c1)c1cc(O)c(O)c(OC(=O)c2cc(O)c(O)c(O)c2)c1, the remaining activity was 103%.
The remaining activity of CSC[C@H]1O[C@@H](n2cnc3c(N)ncnc32)[C@H](O)[C@@H]1O is reported as 75.7%.
Cc1c(C)c2c(c(C)c1O)CC[C@@](C)(CCC[C@H](C)CCC[C@H](C)CCCC(C)C)O2 gave a remaining activity of 99.1%.
The remaining activity of COc1ccc(-c2cc(=O)c3c(O)c(OC)c(OC)c(OC)c3o2)cc1OC is reported as 85.3%.
With COc1ccc([C@@H]2CC(=O)c3c(O)cc(O[C@@H]4O[C@H](CO[C@@H]5O[C@@H](C)[C@H](O)[C@@H](O)[C@H]5O)[C@@H](O)[C@H](O)[C@H]4O)cc3O2)cc1 the remaining activity was 99.9%.
Cc1cc(O)c(C)c2c1O[C@](C)(CCC[C@H](C)CCC[C@H](C)CCCC(C)C)CC2 gave a remaining activity of 102%.

Set 4 — SMILES: CCN(c1nc(N)c(C(=O)N=C(N)N)nc1Cl)C(C)C; observed: β-arrestin recruitment; mode: agonist; technique: PRESTO-Tango; concentration: 10 µM; baseline: untreated
For B2 bradykinin receptor (BDKRB2, Homo sapiens, UniProt P30411): “fold over basal” read 1.29.
It gave 0.84 for “fold over basal” (Oxytocin receptor (OXTR, Homo sapiens, UniProt P30559)).
Type-2 angiotensin II receptor (AGTR2, Homo sapiens, UniProt P50052) — “fold over basal”: 1.58.
It gave 1.44 fold for “fold over basal” (Somatostatin receptor type 4 (SSTR4, Homo sapiens, UniProt P31391)).
5-hydroxytryptamine receptor 1A (HTR1A, Homo sapiens, UniProt P08908) — “fold over basal”: 0.63.
It gave 0.68 for “fold over basal” (Parathyroid hormone/parathyroid hormone-related peptide receptor (PTH1R, Homo sapiens, UniProt Q03431)).
